Published values gathered from unrelated publications.
Lines come from different studies, so protocols differ. Numbers after ± are the reported error.
UniProt P11712, sequence (whole entry, looked up): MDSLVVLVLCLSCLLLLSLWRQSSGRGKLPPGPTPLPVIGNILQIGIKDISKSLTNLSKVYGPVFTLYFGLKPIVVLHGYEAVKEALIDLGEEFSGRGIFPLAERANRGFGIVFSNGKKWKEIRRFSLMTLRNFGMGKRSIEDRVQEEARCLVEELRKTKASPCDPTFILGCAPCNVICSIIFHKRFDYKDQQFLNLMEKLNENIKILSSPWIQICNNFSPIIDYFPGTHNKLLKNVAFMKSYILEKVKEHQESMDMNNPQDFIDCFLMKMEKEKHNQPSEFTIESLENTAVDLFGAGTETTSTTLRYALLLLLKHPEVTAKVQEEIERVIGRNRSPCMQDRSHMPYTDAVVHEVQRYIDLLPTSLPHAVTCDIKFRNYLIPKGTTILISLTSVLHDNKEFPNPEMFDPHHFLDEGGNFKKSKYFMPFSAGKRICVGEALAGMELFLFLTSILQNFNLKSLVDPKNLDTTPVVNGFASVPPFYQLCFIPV

| SMILES | target or system | assay | system | conditions | measurement | value |
| --- | --- | --- | --- | --- | --- | --- |
| Cn1c(=O)oc2ccc(-c3ccc(CC(C#N)NC(=O)C4CNCCCO4)c(F)c3)cc21 (stereo not drawn) |  | item: blood triglycerides increased | human | 60 mg, treatment-related, single dose, fasted | subjects with adverse event | 16.7% |
| C=CC(=O)Nc1cc(Nc2nccc(-c3cn(C)c4ccccc34)n2)c(OCC(F)(F)F)nc1N(C)CCN(C)C | Cytochrome P450 2C9 (CYP2C9, Homo sapiens, UniProt P11712) | enzyme activity, inhibitor | human, liver microsomes | 1 µM | activity vs control | 108% |
| CO.COc1ccc2c(c1)c(CC(=O)[O-])c(C)n2C(=O)c1ccc(Cl)cc1.COc1ccc2c(c1)c(CC(=O)[O-])c(C)n2C(=O)c1ccc(Cl)cc1.O.[Co+2].c1ccc(Nc2ccccn2)nc1 | calf thymus DNA | cyclic voltammetry | DMSO/buffer | Co(II)/Co(I) couple, without DNA | cathodic peak potential | -680 mV |
| [64Cu+2].c1cnc(CNCc2ccc(CN3CCCN4CCNCCCN(CC4)CC3)cc2)nc1 | CXCR4 |  | NOD/SCID mouse, U87 and U87-stb-CXCR4 xenografts, spleen | iv, 90 min, ex vivo, added: AMD3465 25 mg/kg sc before tracer | tissue uptake | 6.48 ± 2.18 %ID/g |
| NCC(=O)N1CCC[C@H]1C(=O)N1C[C@H](O)C[C@H]1C(=O)O | iron(III) ion | complex formation, from log β | aqueous 0.15 M NaCl | 37 °C, MAH−3 complex species | −ΔG | 0.507 kcal/mol |
| CC(=O)N[C@H](C(=O)N[C@H](C(=O)N[C@@H](CCCNC(=N)N)C(=O)N1Cc2ccccc2C[C@H]1C(=O)N[C@@H](Cc1ccccc1)C(N)=O)C1CCCCC1)C(C)C | human PBMC | Bio-Plex multiplex, item: IL-1ra |  | 500 µg/mL, 24 h | cytokine level | 151 ± 69.4 pg/mL |
| [64Cu+2].c1ccc(CNCc2ccc(CN3CCCN4CCNCCCN(CC4)CC3)cc2)nc1 | CXCR4 |  | NOD/SCID mouse, U87 and U87-stb-CXCR4 xenografts, pancreas | iv, 90 min, no blocking dose, ex vivo | tissue uptake | 1.35 ± 0.26 %ID/g |
| N=C(N)NCCC[C@@H]1NC(=O)[C@H](Cc2c[nH]c3ccccc23)NC(=O)[C@@H](CC2CCCCC2)NC(=O)[C@@H]2CCCN2C(=O)[C@@H](NC(=O)CCc2ccccc2)CCCNC1=O |  |  | C57BL/6J mouse, urine | intravenous, 1 mg/kg, 24 h | unchanged drug excreted | ≤ 46% |
| O=C([O-])CN1CCN(CC(=O)[O-])CCN(CC(=O)NCCc2ccc3c(c2)C2C=CCC2C(c2cc4c(cc2Br)OCO4)N3)CCN(CC(=O)[O-])CC1.[111In+3] (stereo not drawn) | Hec50 tumour model |  | host not given, bone | 30 min, tumour-bearing | tracer uptake | 1.32 %ID/g |

Repeated from above:
| SMILES | target or system | assay | system | conditions | measurement | value |
| --- | --- | --- | --- | --- | --- | --- |
| O=C([O-])CN1CCN(CC(=O)[O-])CCN(CC(=O)NCCc2ccc3c(c2)C2C=CCC2C(c2cc4c(cc2Br)OCO4)N3)CCN(CC(=O)[O-])CC1.[111In+3] (stereo not drawn) | Hec50 tumour model |  | host not given, bone | 30 min, tumour-bearing | tracer uptake | 1.32 %ID/g |
